Measured values collected from several papers.
Numbers after ± are the reported error.
Organism: Severe acute respiratory syndrome coronavirus 2

| Compound | assay | test system | setting | EC50 [µM] |
| --- | --- | --- | --- | --- |
| O=C(CCN(Cc1ccco1)C(=O)c1csc(Nc2ccccc2)n1)NCc1cccc(C(F)(F)F)c1 | viral replication, inhibitor | A549-ACE2 | – | 12.4 |
| O=C[C@H](C[C@@H]1CCNC1=O)NC(=O)[C@H](Cc1ccccc1)NC(=O)/C=C/c1ccc(Cl)cc1F | viral replication, plaque reduction | Vero E6, USA-WA1/2020 | 3 days | > 5 |
| CC(C)=CCc1c(O)ccc(C(=O)C2C(c3c(O)cc(O)c4c(=O)c(CC=C(C)C)c(-c5ccc(O)cc5O)oc34)C=C(C)CC2c2ccc(O)cc2O)c1O (stereo not drawn) | antiviral activity | Huh-7 | 96 h | > 100 |
| CC(C)C[C@H](NC(=O)OCc1ccccc1)C(=O)N[C@@H](C[C@@H]1CCNC1=O)C(O)S(=O)(=O)O (stereo partly drawn) | viral replication, inhibitor | Vero C1008 | 72 h | 4.48 |
| CC(C)[C@H](NC(=O)OCc1ccccc1)C(=O)N[C@@H](CC1CCCCC1)C(=O)N[C@H](C=O)C[C@@H]1CCNC1=O | viral replication, plaque reduction | Vero E6, USA-WA1/2020 | 3 days | 0.073 ± 0.007 |
| Cc1ccc(NCCN(C)CCNc2ccnc3cc(Cl)ccc23)c2c(=O)c3ccccc3sc12 | viral entry, inhibitor | HEK-293T | 48 h, pseudovirus | 0.87 |
| Brc1c(Br)c(Br)c2[nH]nnc2c1Br | antiviral activity | Huh-7 | 96 h | > 100 |
| O=C[C@H](C[C@@H]1CCNC1=O)NC(=O)[C@H](Cc1ccccc1)NC(=O)OCc1ccccc1 | viral replication, plaque reduction | Vero E6, USA-WA1/2020 | 3 days | > 5 |
| O=C1C=CC(=O)C=C1 | antiviral activity | Huh-7 | 96 h | > 100 |
| CS(=O)(=O)Nc1ccc(-c2cncc(-c3cccc4[nH]ccc34)c2)cc1 | viral replication, inhibitor, luciferase | Calu-3 | – | 0.6 |
| NC(Cc1cc(O)c(O)cc1O)C(=O)O (racemic) | antiviral activity | Huh-7 | 96 h | > 100 |
| CC(C)CC(NC(=O)OCc1ccccc1)C(=O)NC(CC1CCNC1=O)C(O)S(=O)(=O)O (stereo not drawn) | viral replication, inhibitor | A549-ACE2 | – | 14.7 |

A few entries again:
| Compound | assay | test system | setting | EC50 [µM] |
| --- | --- | --- | --- | --- |
| Cc1ccc(NCCN(C)CCNc2ccnc3cc(Cl)ccc23)c2c(=O)c3ccccc3sc12 | viral entry, inhibitor | HEK-293T | 48 h, pseudovirus | 0.87 |
